Assay results from different studies.
± gives the spread as reported.

[Cl-].[Cl-].[Pt+2].[Ru+2].c1ccc(-c2nccnc2-c2ccccn2)nc1.c1cnc2c(c1)ccc1cccnc12.c1cnc2c(c1)ccc1cccnc12 — survival rate (Danio rerio; embryos; 45 µM, 96 h): 70 ± 2.8%
CNC(=O)c1c(N(C)N=O)ncn1C — revertant colonies per plate (Salmonella typhimurium; mutagenicity, Ames plate incorporation; TA1535; 500 µg/plate, without S9, methanol): 16 ± 3
Fc1ccc(C2=CCNCC2)cc1 — induction factor (Salmonella typhimurium; genotoxicity, SOS/umu test; TA1535/pSK1002; 0.008 mg/mL, 4 h, with S9, full range): 0.9
Cc1cc(C(=O)NC(C)(C)COc2cccc3c2C(N)=NS(=O)(=O)N3)cc(C)n1 — revertant ratio (Salmonella typhimurium; Ames test, confirmatory; TA100; 5000 µg/plate, with: rat liver S9; relative to: solvent control): 1
COc1cccc(-c2n[nH]c(SCc3ccccn3)n2)c1OC — revertant colonies per plate (Escherichia coli; Ames test, plate incorporation; WP2 uvrA; 1.0 mg/plate, with rat liver S9): 46
[Cl-].[Cl-].[Pt+2].[Ru+2].c1ccc(-c2nc3cc4ccccc4cc3nc2-c2ccccn2)nc1.c1cnc2c(c1)ccc1cccnc12.c1cnc2c(c1)ccc1cccnc12 — survival rate (Danio rerio; embryos; 30 µM, 24 h): 90 ± 3.9%
O=[N+]([O-])c1ccc(N2CCC(NCCC(O)c3ccc(F)c4ccccc34)CC2)c(C(F)(F)F)c1 (stereo not shown) — survival (Salmonella typhimurium; SOS/umu test; TA1535/pSK1002, TGA medium; 0.001 mg/mL, 4 h, with: rat liver S9): 121%
[Cl-].[Cl-].[Pt+2].[Ru+2].c1ccc(-c2nc3ccccc3nc2-c2ccccn2)nc1.c1cnc2c(c1)ccc1cccnc12.c1cnc2c(c1)ccc1cccnc12 — survival rate (Danio rerio; embryos; 90 µM, 0 h): 100%
CC(=O)N1CCC(C(=O)N2CCN3C(=O)c4cc(-c5ccccc5)ccc4NC(=O)C3C2)CC1 (stereo not shown) — revertants per plate (Salmonella typhimurium; TA1535; 15.8 µg/plate): 14.5
O=[N+]([O-])c1ccc(N2CCN(CCC(O)c3ccc(F)cc3)CC2)c(C(F)(F)F)c1 (stereo not shown) — induction factor (Salmonella typhimurium; genotoxicity, SOS/umu test; TA1535/pSK1002; 0.063 mg/mL, 4 h, without S9, full range): 0.9

A few entries again:
O=[N+]([O-])c1ccc(N2CCC(NCCC(O)c3ccc(F)c4ccccc34)CC2)c(C(F)(F)F)c1 (stereo not shown) — survival (Salmonella typhimurium; SOS/umu test; TA1535/pSK1002, TGA medium; 0.001 mg/mL, 4 h, with: rat liver S9): 121%
